Experimental data collected from several papers.
A part holds a random share of what one study measured. Changes are numbered by the printed parent chain.
Chain of UniProt Q6XUX3 (whole entry, looked up): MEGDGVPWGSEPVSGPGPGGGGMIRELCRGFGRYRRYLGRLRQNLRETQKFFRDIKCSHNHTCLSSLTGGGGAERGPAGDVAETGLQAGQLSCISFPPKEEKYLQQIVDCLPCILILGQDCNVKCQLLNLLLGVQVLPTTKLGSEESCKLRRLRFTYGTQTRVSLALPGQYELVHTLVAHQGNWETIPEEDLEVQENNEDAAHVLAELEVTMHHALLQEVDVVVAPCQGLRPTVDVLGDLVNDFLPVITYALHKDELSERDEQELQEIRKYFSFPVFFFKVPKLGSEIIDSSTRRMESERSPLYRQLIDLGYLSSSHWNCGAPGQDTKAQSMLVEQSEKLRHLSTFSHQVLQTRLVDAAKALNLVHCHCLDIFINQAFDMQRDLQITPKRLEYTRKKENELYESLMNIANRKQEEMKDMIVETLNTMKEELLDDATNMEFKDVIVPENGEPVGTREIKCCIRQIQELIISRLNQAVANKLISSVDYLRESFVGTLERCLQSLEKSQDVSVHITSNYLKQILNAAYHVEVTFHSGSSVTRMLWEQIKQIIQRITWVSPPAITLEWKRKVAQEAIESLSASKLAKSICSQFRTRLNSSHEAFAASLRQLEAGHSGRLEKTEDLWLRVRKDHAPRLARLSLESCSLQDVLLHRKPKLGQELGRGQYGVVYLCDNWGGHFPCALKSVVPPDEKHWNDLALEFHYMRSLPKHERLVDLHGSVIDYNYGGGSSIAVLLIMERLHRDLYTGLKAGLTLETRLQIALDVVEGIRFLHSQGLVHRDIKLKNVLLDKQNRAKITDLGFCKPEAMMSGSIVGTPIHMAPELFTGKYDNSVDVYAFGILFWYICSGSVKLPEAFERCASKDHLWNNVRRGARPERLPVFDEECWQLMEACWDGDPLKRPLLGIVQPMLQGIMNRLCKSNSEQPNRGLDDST

Series 1
Target: Sal-like protein 4, full length isoform A (SALL4, Homo sapiens, UniProt Q9UJQ4, residues 1-1053)
Chain of UniProt Q9UJQ4 (whole entry, looked up): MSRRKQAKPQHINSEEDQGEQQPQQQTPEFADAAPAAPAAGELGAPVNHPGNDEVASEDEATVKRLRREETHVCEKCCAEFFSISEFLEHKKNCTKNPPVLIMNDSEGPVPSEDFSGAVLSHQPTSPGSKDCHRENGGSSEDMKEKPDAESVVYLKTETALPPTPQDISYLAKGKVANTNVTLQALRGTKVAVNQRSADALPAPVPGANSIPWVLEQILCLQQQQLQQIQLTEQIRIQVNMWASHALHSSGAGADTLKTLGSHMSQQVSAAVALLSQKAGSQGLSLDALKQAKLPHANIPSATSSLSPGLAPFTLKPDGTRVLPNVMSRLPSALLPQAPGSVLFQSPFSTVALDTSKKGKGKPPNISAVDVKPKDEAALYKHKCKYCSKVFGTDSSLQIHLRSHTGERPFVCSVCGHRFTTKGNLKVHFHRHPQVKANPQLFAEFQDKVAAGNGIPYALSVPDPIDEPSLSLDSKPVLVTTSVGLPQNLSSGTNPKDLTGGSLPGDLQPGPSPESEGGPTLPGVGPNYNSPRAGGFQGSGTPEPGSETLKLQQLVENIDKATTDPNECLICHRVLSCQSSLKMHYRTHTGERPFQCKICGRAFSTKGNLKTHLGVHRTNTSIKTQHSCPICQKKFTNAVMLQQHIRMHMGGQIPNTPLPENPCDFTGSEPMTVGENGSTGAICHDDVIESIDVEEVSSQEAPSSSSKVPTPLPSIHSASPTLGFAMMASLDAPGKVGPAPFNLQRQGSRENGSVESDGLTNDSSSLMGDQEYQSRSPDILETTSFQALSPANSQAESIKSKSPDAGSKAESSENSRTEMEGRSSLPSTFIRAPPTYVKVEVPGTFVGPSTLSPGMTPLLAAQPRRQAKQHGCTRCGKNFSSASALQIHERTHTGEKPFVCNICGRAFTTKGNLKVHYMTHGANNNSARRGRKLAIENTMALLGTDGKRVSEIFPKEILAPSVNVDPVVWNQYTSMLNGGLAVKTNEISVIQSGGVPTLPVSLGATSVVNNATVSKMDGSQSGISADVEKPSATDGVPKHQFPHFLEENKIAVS
Technique: universal PBM
Form: double-stranded DNA, one strand shown
Matrix: in vitro
Concentration: 600 nM
Notes: 8-mer, flanks averaged, mean of replicates
Reading: higher = stronger binding
Quantity: E-score
Oligonucleotide = CCTCAATC; value = 0.014
Oligonucleotide = ACCCCACT; value = -0.158
Oligonucleotide = CCTCTAGA; value = -0.0087
Oligonucleotide = CGCTCAGA; value = -0.215
Oligonucleotide = AGAAGGAG; value = -0.084
Oligonucleotide = GTTAAGCA; value = 0.0211
Oligonucleotide = CCGTTAAA; value = 0.0476
Oligonucleotide = CAGAACAA; value = 0.231

Series 2
Substitution: S9C
Target: ABI1, truncated, D143A, DHFR fusion (Arabidopsis thaliana)
Technique: DHFR PCA, deep sequencing
Matrix: yeast
Notes: methotrexate growth selection, single substitutions
Relative to: wild-type fitted maximum
Reading: higher = stronger binding
Quantity: relative binding score
Starting sequence: PYL1, truncated, DHFR fusion (Arabidopsis thaliana); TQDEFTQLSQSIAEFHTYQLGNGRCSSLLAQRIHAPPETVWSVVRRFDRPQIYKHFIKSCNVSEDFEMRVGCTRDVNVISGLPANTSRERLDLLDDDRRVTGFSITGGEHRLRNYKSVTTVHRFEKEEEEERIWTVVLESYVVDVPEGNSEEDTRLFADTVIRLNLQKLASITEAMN
setting = together with: (+)-ABA 0.11 µM; value = 26.3%
setting = together with: (+)-ABA 0.39 µM; value = 30.8%
setting = together with: (+)-ABA 200 µM; value = 86.1%
setting = together with: (+)-ABA 58 µM; value = 73.4%
setting = together with: (+)-ABA 2500 µM; value = 94%
setting = together with: (+)-ABA 0 µM; value = 10.6%

Series 3
Target: CREB3L1, bZIP domain (human)
Technique: DHFR protein complementation
Matrix: yeast
Notes: single substitutions, most at no-binding floor
Relative to: wild-type JUN-FOS pair
Reading: higher = stronger binding
Quantity: binding fitness
Starting sequence: JUN, bZIP domain (human); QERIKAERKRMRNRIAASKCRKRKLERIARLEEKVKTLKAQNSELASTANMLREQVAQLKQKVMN; partner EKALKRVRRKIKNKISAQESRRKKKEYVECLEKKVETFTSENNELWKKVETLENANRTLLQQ
Substitution = E54N; value = -1.52 natural log
Substitution = M51A; value = -1.34 natural log
Substitution = E44K; value = -1.27 natural log
Substitution = R30A; value = -1.29 natural log
Substitution = E33A; value = -1.27 natural log
Substitution = L38W; value = -1.51 natural log
Substitution = V56G; value = -1.49 natural log
Substitution = L31D; value = -1.51 natural log

Further values, each from its own experiment
Compound = COc1cc2ncc(-c3ccccc3)nc2cc1OC; target = Dual serine/threonine and tyrosine protein kinase (DSTYK, Homo sapiens, UniProt Q6XUX3); test = enzyme activity, inhibitor; setting = 0.5 µM; scale = relative to: control; quantity = remaining activity; value = 82.7%

Repeated from above (series 3):
Substitution = M51A; value = -1.34 natural log
Substitution = E44K; value = -1.27 natural log
Substitution = L38W; value = -1.51 natural log
Substitution = R30A; value = -1.29 natural log
